Experimental data gathered from unrelated publications.
A part holds a random share of what one study measured. “And” joins repeats or separate records; there may be more than shown.

Study 1 — organism: SARS-CoV-2 Wuhan spike VSV pseudovirus; observed: pseudovirus entry; concentration: 10 µM
| Structure (SMILES) | inhibition [%] |
| --- | --- |
| CCOc1ccccc1CN1CCN(Cc2ccc3nsnc3c2)CC1CCO (stereo not drawn) | 59 |
| COC[C@@H]1CN(S(=O)(=O)c2ccccc2C)C[C@H]1c1nc(C)no1 | 78 |
| CCCOC1CCCN(C(=O)c2ccc(OC3CCN(Cc4ccccn4)CC3)cc2)C1 (stereo not drawn) | 76 |
| CCOC(=O)C1(Cc2cccc(F)c2)CCN(C(=O)C2CCC2)CC1 | 81 |
| CC(CNC(=O)C1CCN(C(=O)C2Sc3ccccc3NC2=O)CC1)c1ccccc1 (stereo not drawn) | 53 |
| Cc1nc(C(=O)N2CCC3(CCCN(CC4CCC4)C3=O)C2)cs1 (stereo not drawn) | 79 |

Other studies, line by line
rep papain-like protease: Replicase polyprotein 1ab, papain-like protease (rep, Severe acute respiratory syndrome coronavirus 2, UniProt P0DTD1)
rep nsp12 RdRp: Replicase polyprotein 1ab, nsp12 RdRp (rep, Severe acute respiratory syndrome coronavirus 2, UniProt P0DTD1)
rep nsp14: Replicase polyprotein 1ab, nsp14 (rep, Severe acute respiratory syndrome coronavirus 2, UniProt P0DTD1)
| Structure (SMILES) | target | test | system | setting | how to read | measurement | value |
| --- | --- | --- | --- | --- | --- | --- | --- |
| Cc1cccc(C)c1OCC(=O)N[C@@H](Cc1ccccc1)[C@@H](O)C[C@H](Cc1ccccc1)NC(=O)[C@H](C(C)C)N1CCCNC1=O | rep papain-like protease |  |  | concentration not given, C111S mutant | reference: positive control | activity | 21.6% |
| CC1(C)CC[C@]2(C(=O)O)CC[C@]3(C)C(=CC[C@@H]4[C@@]5(C)CCC(=O)C(C)(C)[C@@H]5CC[C@]43C)[C@@H]2C1 | rep nsp12 RdRp | binding, biolayer interferometry |  | 50 µM |  | BLI response | 0.09 nm |
| Nc1ncnc2c1ncn2[C@@H]1O[C@H](CSCC[C@H](N)C(=O)O)[C@@H](O)[C@H]1O | rep nsp14 | thermal shift |  | 250 µM |  | ΔTm | 9.7 °C |
| O=C(O)CCc1cc(C(=O)c2ccc(OC3CCCC3)cc2O)ccc1OCc1ccc2c(=O)[nH]oc2c1 | rep nsp12 RdRp | binding, biolayer interferometry |  | concentration not given |  | BLI response | 0.14 nm |
| O=C(NC1CCN(c2ncnc3[nH]cnc23)CC1)c1cccc(S(=O)(=O)N2CCC2)c1 | rep nsp14 | enzyme activity | SARS-CoV-2 |  |  | IC50 | 3.73 µM and 5.53 µM |
| CC(C)(C)c1ccc(Oc2ccc(N)cn2)cc1 | rep papain-like protease |  |  | concentration not given, C111S mutant | reference: positive control | activity | 15.7% |

Repeated from above (other studies, line by line):
| Structure (SMILES) | target | test | system | setting | how to read | measurement | value |
| --- | --- | --- | --- | --- | --- | --- | --- |
| CC(C)(C)c1ccc(Oc2ccc(N)cn2)cc1 | rep papain-like protease |  |  | concentration not given, C111S mutant | reference: positive control | activity | 15.7% |
